Published values pooled from the literature.
Protocols differ between the studies behind these lines.
Organism: Streptococcus pneumoniae

With `CC[C@H](C)[C@@H]1NC(=O)[C@H](CC(C)C)NC(=O)[C@@H](NC(=O)[C@H](CCCNC(=N)N)NC(=O)[C@@H](NC(=O)CNC(=O)[C@@H]2CCCN2C(=O)[C@@H]2CCC(=O)NCC(=O)N[C@@H](CO)C(=O)N[C@@H](CCCNC(=N)N)C(=O)NCC(=O)N[C@@H](Cc3c[nH]c4ccccc34)C(=O)NCC(=O)N[C@@H](Cc3ccccc3)C(=O)N2)C(C)C)CSSC[C@@H](C(=O)N[C@@H](CC(=O)O)C(=O)O)NC(=O)[C@H](Cc2c[nH]c3ccccc23)NC1=O` the MIC was 64 µg/mL (broth microdilution; ATCC 49619, penicillin intermediate; overnight, 37 °C).
With `Oc1c(Br)cc(Br)c2nc3ccc(C(F)(F)F)cc3nc12` the MIC was 0.39 µM (broth microdilution; 6303).
`CN[C@@H]1[C@H](O)[C@H](NC)[C@H]2O[C@]3(O)[C@H](O[C@@H]2[C@H]1O)O[C@H](C)C[C@H]3NC(=O)Cc1ccc(Cl)cn1` gave an MIC of 25 µg/mL (microbial growth, broth dilution; DAW27).
`CC[C@H](C)[C@@H]1NC(=O)[C@H](CO)NC(=O)C(C)(CCCCN)NC(=O)[C@@H]2CSSC[C@@H](C(=O)N[C@@H](Cc3ccc(O)cc3)C(N)=O)NC(=O)[C@H](CCCCN)NC(=O)[C@@H]3CSSC[C@H](NC(=O)[C@H](CCCNC(=N)N)NC(=O)C(C)(CC(C)C)NC(=O)[C@H](CC(=O)O)NC(=O)[C@H](CC(=O)O)NC(=O)[C@H](CCC(=O)O)NC(=O)[C@H](CC(N)=O)NC(=O)[C@H](Cc4c[nH]c5ccccc45)NC(=O)[C@@H]4CCCN4C(=O)CNC(=O)[C@H](CC(N)=O)NC(=O)[C@@H](NC(=O)CNC(=O)[C@H](Cc4ccccc4)NC(=O)CN)CSSC[C@H](NC(=O)[C@H](Cc4ccc(O)cc4)NC(=O)CNC(=O)CNC(=O)[C@H](CCCCN)NC(=O)[C@H](Cc4ccc(O)cc4)NC(=O)CNC(=O)[C@H](CCCCN)NC1=O)C(=O)N[C@@H](C)C(=O)N[C@@H](CCCCN)C(=O)NCC(=O)NCC(=O)N[C@@H](Cc1ccccc1)C(=O)N[C@@H](C(C)C)C(=O)N3)C(=O)N[C@@H](Cc1c[nH]cn1)C(=O)NC(C)(C)C(=O)N[C@@H](Cc1c[nH]cn1)C(=O)N2` (some centres unmarked) gave an MIC of 0.5 µM (broth microdilution; BS-444; 18 h).
For `CN[C@@H]1[C@H](O)[C@H](NC)[C@H]2O[C@]3(O)[C@H](O[C@@H]2[C@H]1O)O[C@H](C)C[C@H]3NC(=O)Cc1cscn1`, the MIC was 12.5 µg/mL (microbial growth, broth dilution; DAW27).
The MIC of `Oc1c(Br)cc(Br)c2nc3cc(C(F)(F)F)ccc3nc12` is reported as 0.04 µM (broth microdilution; 6303).
For `Cc1cc(C)c2nc3c(Br)cc(Br)c(O)c3nc2c1`, the MIC was 0.1 µM (broth microdilution; 6303; 16 h, 37 °C).
`CC[C@H](C)[C@@H]1NC(=O)[C@H](CO)NC(=O)C(C)(CCCCN)NC(=O)[C@@H]2CSSC[C@@H](C(=O)N[C@@H](Cc3ccc(O)cc3)C(N)=O)NC(=O)[C@H](CCCCN)NC(=O)[C@@H]3CSSC[C@H](NC(=O)[C@H](CCCNC(=N)N)NC(=O)C(C)(CC(C)C)NC(=O)[C@H](CC(=O)O)NC(=O)[C@H](CC(=O)O)NC(=O)[C@H](CCC(=O)O)NC(=O)[C@H](CC(N)=O)NC(=O)[C@H](Cc4c[nH]c5ccccc45)NC(=O)C(C)(CC)NC(=O)CNC(=O)[C@H](CC(N)=O)NC(=O)[C@@H](NC(=O)CNC(=O)[C@H](Cc4ccccc4)NC(=O)CN)CSSC[C@H](NC(=O)[C@H](Cc4ccc(O)cc4)NC(=O)CNC(=O)CNC(=O)[C@H](CCCCN)NC(=O)[C@H](Cc4ccc(O)cc4)NC(=O)[C@H]4CCCN4C(=O)[C@@H]4CCCN4C1=O)C(=O)N[C@@H](C)C(=O)N[C@@H](CCCCN)C(=O)N1CCC[C@@H]1C(=O)NCC(=O)N[C@@H](Cc1ccccc1)C(=O)N[C@@H](C(C)C)C(=O)N3)C(=O)N[C@@H](Cc1c[nH]cn1)C(=O)NC(C)(C)C(=O)N[C@@H](Cc1c[nH]cn1)C(=O)N2` (some centres unmarked) has an MIC of 2 µM (broth microdilution; D39; 18 h).
The MIC of `c1ccc2c(c1)nc(CNCC13CC4CC(CC(C4)C1)C3)n2CC1CC1` is reported as 2 µg/mL (ATCC 49619).
`c1ccc(CCNC2CCCc3c2[nH]c2ccc(C4CCCCC4)cc32)cc1` (centres unmarked) gave an MIC of 1.3 µg/mL (broth microdilution; serotype 4, supplemented C+Y medium).
With `CC[C@H](C)[C@@H]1NC(=O)[C@H](CO)NC(=O)[C@H](CCCCN)NC(=O)[C@@H]2CSSC[C@@H](C(=O)N[C@@H](Cc3ccc(O)cc3)C(N)=O)NC(=O)[C@H](CCCCN)NC(=O)[C@@H]3CSSC[C@H](NC(=O)[C@H](CCCNC(=N)N)NC(=O)[C@H](CC(C)C)NC(=O)[C@H](CC(=O)O)NC(=O)[C@H](CC(=O)O)NC(=O)[C@H](CCC(=O)O)NC(=O)[C@H](CC(N)=O)NC(=O)[C@H](Cc4c[nH]c5ccccc45)NC(=O)C(C)(CC)NC(=O)CNC(=O)[C@H](CC(N)=O)NC(=O)[C@@H](NC(=O)CNC(=O)[C@H](Cc4ccccc4)NC(=O)CN)CSSC[C@H](NC(=O)[C@H](Cc4ccc(O)cc4)NC(=O)CNC(=O)CNC(=O)[C@H](CCCCN)NC(=O)[C@H](Cc4ccc(O)cc4)NC(=O)[C@H]4CCCN4C(=O)[C@@H]4CCCN4C1=O)C(=O)N[C@@H](C)C(=O)N[C@@H](CCCCN)C(=O)N1CCC[C@@H]1C(=O)NCC(=O)N[C@@H](Cc1ccccc1)C(=O)N[C@@H](C(C)C)C(=O)N3)C(=O)N[C@@H](Cc1c[nH]cn1)C(=O)N[C@@H](CC(N)=O)C(=O)N[C@@H](Cc1c[nH]cn1)C(=O)N2` (some centres unmarked) the MIC was 1 µM (broth microdilution; BS-444; 18 h).

For quick reference, copied from above:
`CC[C@H](C)[C@@H]1NC(=O)[C@H](CO)NC(=O)C(C)(CCCCN)NC(=O)[C@@H]2CSSC[C@@H](C(=O)N[C@@H](Cc3ccc(O)cc3)C(N)=O)NC(=O)[C@H](CCCCN)NC(=O)[C@@H]3CSSC[C@H](NC(=O)[C@H](CCCNC(=N)N)NC(=O)C(C)(CC(C)C)NC(=O)[C@H](CC(=O)O)NC(=O)[C@H](CC(=O)O)NC(=O)[C@H](CCC(=O)O)NC(=O)[C@H](CC(N)=O)NC(=O)[C@H](Cc4c[nH]c5ccccc45)NC(=O)[C@@H]4CCCN4C(=O)CNC(=O)[C@H](CC(N)=O)NC(=O)[C@@H](NC(=O)CNC(=O)[C@H](Cc4ccccc4)NC(=O)CN)CSSC[C@H](NC(=O)[C@H](Cc4ccc(O)cc4)NC(=O)CNC(=O)CNC(=O)[C@H](CCCCN)NC(=O)[C@H](Cc4ccc(O)cc4)NC(=O)CNC(=O)[C@H](CCCCN)NC1=O)C(=O)N[C@@H](C)C(=O)N[C@@H](CCCCN)C(=O)NCC(=O)NCC(=O)N[C@@H](Cc1ccccc1)C(=O)N[C@@H](C(C)C)C(=O)N3)C(=O)N[C@@H](Cc1c[nH]cn1)C(=O)NC(C)(C)C(=O)N[C@@H](Cc1c[nH]cn1)C(=O)N2` (some centres unmarked) gave an MIC of 0.5 µM (broth microdilution; BS-444; 18 h).
With `CC[C@H](C)[C@@H]1NC(=O)[C@H](CO)NC(=O)[C@H](CCCCN)NC(=O)[C@@H]2CSSC[C@@H](C(=O)N[C@@H](Cc3ccc(O)cc3)C(N)=O)NC(=O)[C@H](CCCCN)NC(=O)[C@@H]3CSSC[C@H](NC(=O)[C@H](CCCNC(=N)N)NC(=O)[C@H](CC(C)C)NC(=O)[C@H](CC(=O)O)NC(=O)[C@H](CC(=O)O)NC(=O)[C@H](CCC(=O)O)NC(=O)[C@H](CC(N)=O)NC(=O)[C@H](Cc4c[nH]c5ccccc45)NC(=O)C(C)(CC)NC(=O)CNC(=O)[C@H](CC(N)=O)NC(=O)[C@@H](NC(=O)CNC(=O)[C@H](Cc4ccccc4)NC(=O)CN)CSSC[C@H](NC(=O)[C@H](Cc4ccc(O)cc4)NC(=O)CNC(=O)CNC(=O)[C@H](CCCCN)NC(=O)[C@H](Cc4ccc(O)cc4)NC(=O)[C@H]4CCCN4C(=O)[C@@H]4CCCN4C1=O)C(=O)N[C@@H](C)C(=O)N[C@@H](CCCCN)C(=O)N1CCC[C@@H]1C(=O)NCC(=O)N[C@@H](Cc1ccccc1)C(=O)N[C@@H](C(C)C)C(=O)N3)C(=O)N[C@@H](Cc1c[nH]cn1)C(=O)N[C@@H](CC(N)=O)C(=O)N[C@@H](Cc1c[nH]cn1)C(=O)N2` (some centres unmarked) the MIC was 1 µM (broth microdilution; BS-444; 18 h).
